Values quoted from earlier work, collected from citations in different studies.
Protocols differ between the studies behind these lines. ± gives the spread as reported. In brackets after ≈: the same amount, converted by molar mass.
ribH: 6,7-dimethyl-8-ribityllumazine synthase (ribH, Mycobacterium tuberculosis, UniProt P9WHE9)
Sequence of UniProt P9WHE9 (whole entry, looked up): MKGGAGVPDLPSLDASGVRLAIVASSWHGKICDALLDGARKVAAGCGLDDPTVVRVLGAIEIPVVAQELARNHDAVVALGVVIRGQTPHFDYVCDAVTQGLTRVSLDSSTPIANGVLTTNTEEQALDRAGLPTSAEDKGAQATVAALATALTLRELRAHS
Sequence of UniProt P42866 (whole entry, looked up): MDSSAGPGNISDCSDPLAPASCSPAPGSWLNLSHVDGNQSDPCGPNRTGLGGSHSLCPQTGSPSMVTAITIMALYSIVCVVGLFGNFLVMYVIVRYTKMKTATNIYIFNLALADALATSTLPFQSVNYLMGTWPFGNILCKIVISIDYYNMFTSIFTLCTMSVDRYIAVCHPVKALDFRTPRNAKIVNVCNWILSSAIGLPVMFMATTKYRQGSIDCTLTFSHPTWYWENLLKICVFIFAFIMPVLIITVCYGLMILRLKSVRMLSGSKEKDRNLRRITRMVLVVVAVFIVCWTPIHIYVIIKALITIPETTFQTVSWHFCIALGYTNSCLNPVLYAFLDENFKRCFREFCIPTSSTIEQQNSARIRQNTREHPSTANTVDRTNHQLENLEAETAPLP

With `CC[C@H](C)[C@H](N)C(=O)N[C@@H](CC(C)C)C(=O)N[C@@H](CO)C(=O)N[C@@H](C)C(=O)N[C@H](C(=O)N[C@@H](Cc1c[nH]c2ccccc12)C(=O)N[C@@H](CO)C(=O)NCC(=O)N[C@H](C(=O)N[C@@H](CCCCN)C(=O)N[C@@H](CO)C(=O)N[C@@H](CC(C)C)C(=O)N[C@@H](Cc1ccccc1)C(N)=O)[C@@H](C)CC)[C@@H](C)CC` the HC50 was 20 µM (human erythrocytes).
With `N=C(N)NCCC[C@@H]1NC(=O)[C@H](CCCCNC(=O)CCOCCOCCOCCOCCNC(=O)CC[C@H](NC(=O)CCOCCOCCOCCOCCNC(=O)c2ccc(NN)nc2)C(=O)NCCOCCOCCOCCOCCC(=O)NCCCC[C@@H]2NC(=O)[C@@H](Cc3ccccc3)NC(=O)[C@H](CC(=O)O)NC(=O)CNC(=O)[C@H](CCCNC(=N)N)NC2=O)NC(=O)[C@@H](Cc2ccccc2)NC(=O)[C@H](CC(=O)O)NC(=O)CNC1=O` [technetium-99m labelled] the tumour uptake was 9.74 ± 3.22 %ID/g (athymic nude mouse, U-87 MG xenograft, tumour; dose not given, 120 min).
The half-life of `CCCCCCCC(=O)OC[C@H](NC(=O)[C@H](CO)NC(=O)CN)C(=O)N[C@@H](Cc1ccccc1)C(=O)N[C@@H](CC(C)C)C(=O)N[C@@H](CO)C(=O)N1CCC[C@H]1C(=O)N[C@@H](CCC(=O)O)C(=O)N[C@@H](Cc1cnc[nH]1)C(=O)N[C@@H](CCC(N)=O)C(=O)N[C@@H](CCCNC(=N)N)C(=O)N[C@H](C(=O)N[C@@H](CCC(N)=O)C(=O)N[C@@H](CCC(N)=O)C(=O)N[C@@H](CCCNC(=N)N)C(=O)N[C@@H](CCCCN)C(=O)N[C@@H](CCC(=O)O)C(=O)N[C@@H](CO)C(=O)N[C@@H](CCCCN)C(=O)N[C@@H](CCCCN)C(=O)N1CCC[C@H]1C(=O)N1CCC[C@H]1C(=O)N[C@@H](C)C(=O)N[C@@H](CCCCN)C(=O)N[C@@H](CC(C)C)C(=O)N[C@@H](CCC(N)=O)C(=O)N1CCC[C@H]1C(=O)N[C@@H](CCCNC(=N)N)C(=O)O)C(C)C` is reported as 21 ± 3 min (injection, concentration not given).
`CC[C@H](C)C(=O)N1CCC(NC(=O)Nc2ccc(OC(F)(F)F)c(F)c2)CC1` has an IC50 of 5800 nM (OATP1B3; inhibitor).
For `O=c1[nH]c(NC[C@H](O)[C@H](O)[C@H](O)CO)c([N+](=O)[O-])c(=O)[nH]1`, the kcat was 0.002 ± 0.000167 s⁻¹ (ribH; enzyme kinetics; pH 7.0).
The Emax of `O=C(N[C@H]1CC[C@@]2(O)[C@H]3Cc4ccc(O)c5c4[C@@]2(CCN3CC2CC2)[C@H]1O5)c1cccc2ccoc12` is reported as 12.9% (Oprm1 (Mus musculus, UniProt P42866); agonist; baseline: DAMGO).
The kcat of `O=c1[nH]c(SC[C@H](O)[C@H](O)[C@H](O)CO)c([N+](=O)[O-])c(=O)[nH]1` is reported as 0.00333 ± 0.000167 s⁻¹ (ribH; enzyme kinetics; pH 7.0).
`CC1=C(C)C(=O)OC(C(C)(O)C2(O)CCC3(O)C4CC5OC56C(O)C=CC(=O)C6(C)C4CCC32C)C1` (stereo not shown) gave an IC50 of 990 nM (L5178Y; cell growth).
`C=CCc1cc2c(c(OC)c1OC)OCO2` gave an IC50 of 22000 nM (3T3 mouse fibroblasts; cytotoxicity).
`CC1=C(C)C(=O)OC(C(C)(O)C2(O)CCC3(O)C4CC5OC56CC=CC(=O)C6(C)C4CCC32C)C1` (stereo not shown) has an IC50 of 420 nM (MCF7/BUS).
`CCCCCc1cc(O)c2c(c1)OC(C)(C)C1CCC(C)=CC21` (single isomer, unassigned; (-)) has a Cmax of 65 nM (human, plasma; oral, 40 mg).
Under “time to peak uptake”, `O=C(OCC[18F])C1C2CCC(CC1c1ccc(/C=C\I)cc1)N2` (stereo not shown) is recorded as 85 min (SERT; HRRT PET; awake rhesus monkey, medulla).
For `CC(C)C[C@@H]1NC(=O)[C@H](C(C)C)NC(=O)[C@H](CO)NC(=O)CNC(=O)CNC(=O)[C@H](CCCNC(=N)N)NC(=O)[C@@H]2CCCN2C(=O)[C@@H](NC(=O)CC[C@H](NC(=O)c2ccc(N(C)Cc3cnc4nc(N)nc(N)c4n3)cc2)C(=O)O)C(C)(C)SSC[C@@H](C(=O)O)NC(=O)CNC(=O)[C@H]([C@@H](C)O)NC(=O)[C@H](C(C)C)NC1=O`, the IC50 was 2750 nM (MOLT-3 (LFA-1-expressing); cytotoxicity).
`CN[C@H](CC(C)C)C(=O)N[C@H]1C(=O)N[C@@H](CC(N)=O)C(=O)N[C@H]2C(=O)N[C@H]3C(=O)N[C@H](C(=O)N[C@H](C(=O)O)c4cc(O)cc(O)c4-c4cc3ccc4O)[C@H](O)c3ccc(c(Cl)c3)Oc3cc2cc(c3O[C@@H]2O[C@H](CO)[C@@H](O)[C@H](O)[C@H]2O[C@H]2C[C@](C)(NCc3ccc(-c4ccc(Cl)cc4)cc3)[C@H](O)[C@H](C)O2)Oc2ccc(cc2Cl)[C@H]1O` gave a Cmax of 65 µg/mL (mouse, plasma; intravenous, 10 mg/kg).
`CCCC(C(=O)c1ccccc1)N1CCCC1` (stereo not shown) — result for “detection time in blood”: 6 h (human, blood; intranasal).
`CCCCCc1cc(O)c2c(c1)OC(C)(C)C1CCC(CO)=CC21` (stereo not shown) has a plasma concentration of about 10% (human; dose not given, after cannabis smoking; baseline: THC).
`CCCCCc1cc(O)c2c(c1)OC(C)(C)C1CCC(C)=CC21` (stereo not shown) has an aqueous solubility of 1 to 2 µg/mL (≈ 3.18 to 6.36 µM).
For `CC1(C)N=C(N)N=C(N)N1c1ccc(Cl)c(Cl)c1`, the selectivity index was over 10000 (respiratory syncytial virus; baseline: cytotoxic over antiviral concentration).
`CCCCCc1cc(O)c2c(c1)OC(C)(C)C1CCC(C(=O)O)=CC21` (stereo not shown): “plasma level ratio” about 2 fold (human, plasma; inhalation of cannabis; baseline: THC).
